Experimental data gathered from unrelated publications.
Compare with care: the assays were run in different laboratories.

`COc1ccc(-c2c(-c3ccc(C#N)c(F)c3)nc(N3CCC(N)CC3)n(C)c2=O)cc1F`: “patients with serious TEAE” 0% (measured: hepatic hemorrhage; human patients; oral, dose not given, dose escalation).
`COc1ncnn2ccc(-c3cnc4nc(C)n(Cc5nnc([C@@H](C)F)o5)c4c3)c12`: “patients with taste disorder” 0% (human; oral, dose not given, grade 5).
`Cn1cncc1-c1c(F)cncc1NC(=O)c1c(N)nn2cc(F)cnc12` — result for “patients grade ≥3 Platelet count decrease”: 0% (human patients; oral, 180 mg once daily, 2 weeks on 1 week off).
Under “patients with adverse event”, `N[C@@H]1c2ccccc2OC12CCN(c1cnc3c(N4CCCc5ncccc54)n[nH]c3n1)CC2` is recorded as 57% (measured: diarrhea; human advanced or metastatic solid tumours; oral, dose not given, phase Ia all doses).
`C=CCNc1c(O)cc2c(O)c1C[C@@H](C)C[C@H](OC)[C@H](O)[C@@H](C)/C=C(\C)[C@H](OC(N)=O)[C@@H](OC)/C=C\C=C(/C)C(=O)N2`: “patients with sinus bradycardia” 20% (human unresectable metastatic GIST or sarcoma; intravenous, dose not given, treatment-emergent, all doses).
`Cn1nc(NS(C)(=O)=O)c2c(Cl)ccc(-n3c([C@H](Cc4cc(F)cc(F)c4)NC(=O)Cn4nc(C(F)F)c5c4C(F)(F)[C@@H]4C[C@H]54)nc4nc(OCCC(F)(F)F)ccc4c3=O)c21` — result for “patients with laboratory abnormality”: 13% (measured: total cholesterol grade 3 increase; human; 300 mg once daily, powder in bottle).
Under “patients with ALT/AST elevation”, `Cc1cn([C@H]2O[C@@H](CO[P@@](=O)(N[C@@H](C)C(=O)OC(C)C)Oc3ccccc3)[C@H](O)[C@H]2F)c(=O)[nH]c1=O` is recorded as 0% (measured: grade 3; human; 10 mg).
`O=C1Nc2cc3[nH]nc(-c4ccncc4)c3cc2CN1Cc1ccccc1`: “patients with QTc prolongation” 0% (CTCAE v4.03; human, relapsed or refractory advanced solid tumours; intravenous, 0.9 mg/kg, pooled schedules).
For `CN(C)C(=O)c1cc2cnc(Nc3ccc(N4CCNCC4)cn3)nc2n1C1CCCC1`, “patients with adverse event” read 57% (measured: Infections, AESI; human, HR+/HER2− advanced breast cancer; oral, dose not given, all grades, CTCAE v4.03).
`C[C@@H]1OC(=O)NN=C1c1ccc(-c2ccc(F)cc2)c(C(F)(F)F)c1`: “patients with adverse event” 50% (phase I trial, measured: Ascites worst grade 2; human patients; 20 mg loading then 1 mg daily).
`C=CC(=O)Nc1cc(Nc2nccc(Nc3cc(Cl)c(F)cc3C(C)(C)O)n2)c(OC)cc1N1CC[C@@H](N(C)C)C1`: “patients with amylase increased” 10% (human patients; oral, 400 mg, treatment-emergent adverse events).
`C[C@]1(O)C[C@@](N)(c2ccc(-c3nc4n(c3-c3ccccc3)COc3ccncc3-4)cc2)C1` — result for “patients with Anemia TEAE”: 0% (human, advanced or metastatic solid tumours; 16 mg once daily, phase I dose escalation).
`CN[C@@H](C)C(=O)N[C@H]1CN(S(=O)(=O)c2cccc(S(=O)(=O)N3CC[C@H]4CC[C@@H](C(=O)NC(c5ccccc5)c5ccccc5)N4C(=O)[C@@H](NC(=O)[C@H](C)NC)C3)c2)CC[C@H]2CC[C@@H](C(=O)NC(c3ccccc3)c3ccccc3)N2C1=O`: “patients with any TRAE” 20% (human, advanced solid tumours; intravenous, 20 mg weekly, CTCAE version 4.0).
For `CNC(=O)c1cc(Oc2ccc(NC(=O)Nc3cc(C(C)(C)C)nn3-c3ccc4ncccc4c3)c(F)c2)ccn1`, “patients with any related serious AE” read 35% (human, trial; oral, 150 mg twice daily, starting dose).

Some of these lines once more:
For `CN(C)C(=O)c1cc2cnc(Nc3ccc(N4CCNCC4)cn3)nc2n1C1CCCC1`, “patients with adverse event” read 57% (measured: Infections, AESI; human, HR+/HER2− advanced breast cancer; oral, dose not given, all grades, CTCAE v4.03).
